Measured values collected from several papers.
Parts stem from different laboratories: compare values within a part only.

Sequences of proteins named here, by UniProt entry; tags and fusion partners are left off.
UniProt Q16539, whole entry: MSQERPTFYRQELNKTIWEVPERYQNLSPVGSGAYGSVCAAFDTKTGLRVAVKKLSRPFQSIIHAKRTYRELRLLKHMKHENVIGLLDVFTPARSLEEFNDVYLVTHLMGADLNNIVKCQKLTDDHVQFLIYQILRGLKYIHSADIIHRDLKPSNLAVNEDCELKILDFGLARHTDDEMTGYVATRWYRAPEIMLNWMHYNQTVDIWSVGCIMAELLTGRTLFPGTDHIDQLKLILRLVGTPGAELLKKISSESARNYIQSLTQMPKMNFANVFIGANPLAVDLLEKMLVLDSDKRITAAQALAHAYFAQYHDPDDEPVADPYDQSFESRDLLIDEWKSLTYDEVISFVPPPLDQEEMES

Block 1 — method: SRB
Structure (SMILES): N#Cc1c(-c2ccc(Cl)cc2Cl)n(-c2nc(-c3ccc(Cl)cc3)c3c(NC(=O)c4ccccc4)nnc-3[nH]2)[nH]c1=O
| cell line | setting | CC50 [µM] |
| --- | --- | --- |
| A498 |  | > 100 |
| OVCAR-4 |  | > 100 |
| 786-0 | 5-dose | > 100 |

Other studies, line by line
| Structure (SMILES) | target or system | assay | conditions | scale | endpoint | value |
| --- | --- | --- | --- | --- | --- | --- |
| Cc1nn(-c2ccc(Cl)cc2)c2c1C(c1cc(Cl)ccc1Cl)C(C#N)=C(N)O2 (stereo not drawn) | Vero E6 |  | 6.3 µM |  | viability | 72.1% |
| CC(C)C[C@H](NC(=O)[C@H](C)NC(=O)[C@H](CCCNC(=N)N)NC(=O)[C@H](CCCNC(=N)N)NC(=O)[C@H](CCCNC(=N)N)NC(=O)[C@H](C)NC(=O)[C@H](CC(C)C)NC(=O)[C@H](CCCNC(=N)N)NC(=O)[C@H](CO)NC(=O)[C@H](CCCCN)NC(=O)[C@H](CO)NC(=O)Cn1cc(COC(=O)[C@]2(C)C=C(C(=O)OC(C)(C)C)C(=O)CC2)nn1)C(=O)O | Mitogen-activated protein kinase 14 (MAPK14, Homo sapiens, UniProt Q16539) | binding, competitor, fluorescence polarization | 0.01953 µM | higher = less displacement | fraction bound | 0.659 |
| C=C(C)C(=O)Nc1ccc(-c2c(-c3ccc(Oc4nccc(C)n4)c(F)c3)c3c(N)ncnc3n2C)cc1 | MFE-319 | cell growth, CellTiter-Glo | 120 h |  | GR Hill coefficient | 5 |

Some of these lines once more (block 1):
| cell line | setting | CC50 [µM] |
| --- | --- | --- |
| 786-0 | 5-dose | > 100 |
